{"data": "Experimental data pooled from the literature", "read-out": "binding", "note": "Each line is one published result; not all experiments were run side by side.", "chain of UniProt Q9H2K8 (whole entry, looked up)": "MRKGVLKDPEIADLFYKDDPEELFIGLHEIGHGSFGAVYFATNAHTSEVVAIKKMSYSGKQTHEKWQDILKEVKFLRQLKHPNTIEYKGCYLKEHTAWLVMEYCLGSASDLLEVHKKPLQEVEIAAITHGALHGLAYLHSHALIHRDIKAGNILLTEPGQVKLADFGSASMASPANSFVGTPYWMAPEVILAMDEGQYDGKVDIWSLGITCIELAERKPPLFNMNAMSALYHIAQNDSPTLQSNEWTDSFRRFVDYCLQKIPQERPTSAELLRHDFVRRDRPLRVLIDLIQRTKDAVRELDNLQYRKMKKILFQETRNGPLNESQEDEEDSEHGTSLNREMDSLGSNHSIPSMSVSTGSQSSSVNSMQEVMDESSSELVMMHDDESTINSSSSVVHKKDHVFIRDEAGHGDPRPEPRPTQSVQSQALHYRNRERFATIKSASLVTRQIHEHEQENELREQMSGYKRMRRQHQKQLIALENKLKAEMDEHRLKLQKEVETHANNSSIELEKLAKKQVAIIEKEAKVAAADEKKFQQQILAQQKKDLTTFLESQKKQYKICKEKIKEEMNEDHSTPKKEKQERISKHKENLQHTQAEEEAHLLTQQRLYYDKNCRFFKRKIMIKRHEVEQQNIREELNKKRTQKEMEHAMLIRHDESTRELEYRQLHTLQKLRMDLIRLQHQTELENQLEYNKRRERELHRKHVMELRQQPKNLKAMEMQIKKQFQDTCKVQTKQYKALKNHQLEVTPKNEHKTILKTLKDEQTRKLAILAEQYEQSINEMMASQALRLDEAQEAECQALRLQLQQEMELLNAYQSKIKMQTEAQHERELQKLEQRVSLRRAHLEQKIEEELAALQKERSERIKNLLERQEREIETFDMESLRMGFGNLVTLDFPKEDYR", "chain of UniProt P42336 (whole entry, unmodified, looked up)": "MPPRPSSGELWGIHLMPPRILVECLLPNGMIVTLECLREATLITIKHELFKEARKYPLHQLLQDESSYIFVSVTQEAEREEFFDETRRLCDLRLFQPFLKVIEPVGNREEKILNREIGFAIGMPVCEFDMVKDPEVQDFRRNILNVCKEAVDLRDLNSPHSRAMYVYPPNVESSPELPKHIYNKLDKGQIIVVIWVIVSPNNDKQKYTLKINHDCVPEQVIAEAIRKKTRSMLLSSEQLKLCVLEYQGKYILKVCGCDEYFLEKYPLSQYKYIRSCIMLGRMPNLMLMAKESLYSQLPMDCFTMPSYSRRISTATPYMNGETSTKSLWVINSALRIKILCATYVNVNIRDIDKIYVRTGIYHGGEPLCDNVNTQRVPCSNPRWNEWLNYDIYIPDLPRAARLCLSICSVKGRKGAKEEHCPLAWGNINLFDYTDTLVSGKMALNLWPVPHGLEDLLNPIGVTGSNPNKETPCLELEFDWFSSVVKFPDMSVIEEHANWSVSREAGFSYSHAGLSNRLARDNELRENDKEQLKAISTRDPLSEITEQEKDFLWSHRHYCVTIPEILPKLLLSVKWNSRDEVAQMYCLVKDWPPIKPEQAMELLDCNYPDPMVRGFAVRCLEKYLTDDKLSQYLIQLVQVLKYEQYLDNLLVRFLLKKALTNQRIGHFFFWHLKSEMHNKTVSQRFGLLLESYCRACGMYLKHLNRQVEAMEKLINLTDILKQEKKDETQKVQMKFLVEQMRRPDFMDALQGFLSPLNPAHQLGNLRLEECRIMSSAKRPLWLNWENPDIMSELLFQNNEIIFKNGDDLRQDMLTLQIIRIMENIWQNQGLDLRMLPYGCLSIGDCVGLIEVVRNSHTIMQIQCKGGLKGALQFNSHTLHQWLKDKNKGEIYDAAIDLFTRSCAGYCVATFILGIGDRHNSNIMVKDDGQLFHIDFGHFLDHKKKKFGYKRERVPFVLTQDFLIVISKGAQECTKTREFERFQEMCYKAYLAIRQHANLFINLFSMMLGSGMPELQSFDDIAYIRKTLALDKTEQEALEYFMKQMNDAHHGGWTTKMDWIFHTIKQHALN", "chain of UniProt P62344 (whole entry, looked up)": "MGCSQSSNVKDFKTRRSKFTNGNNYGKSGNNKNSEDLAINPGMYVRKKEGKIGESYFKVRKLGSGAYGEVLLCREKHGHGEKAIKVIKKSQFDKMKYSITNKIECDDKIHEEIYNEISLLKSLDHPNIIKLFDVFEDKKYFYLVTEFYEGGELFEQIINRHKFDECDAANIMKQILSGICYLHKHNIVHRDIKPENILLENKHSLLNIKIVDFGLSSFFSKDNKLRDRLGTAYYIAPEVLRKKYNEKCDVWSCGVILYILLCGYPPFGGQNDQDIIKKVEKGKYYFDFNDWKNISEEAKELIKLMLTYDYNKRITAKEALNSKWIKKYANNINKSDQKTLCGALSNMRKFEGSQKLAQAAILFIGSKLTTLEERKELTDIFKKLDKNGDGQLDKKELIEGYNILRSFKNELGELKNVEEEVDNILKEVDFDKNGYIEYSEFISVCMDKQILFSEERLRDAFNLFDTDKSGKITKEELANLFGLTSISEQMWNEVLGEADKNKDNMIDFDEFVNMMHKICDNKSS", "chain of UniProt P78362 (whole entry, looked up)": "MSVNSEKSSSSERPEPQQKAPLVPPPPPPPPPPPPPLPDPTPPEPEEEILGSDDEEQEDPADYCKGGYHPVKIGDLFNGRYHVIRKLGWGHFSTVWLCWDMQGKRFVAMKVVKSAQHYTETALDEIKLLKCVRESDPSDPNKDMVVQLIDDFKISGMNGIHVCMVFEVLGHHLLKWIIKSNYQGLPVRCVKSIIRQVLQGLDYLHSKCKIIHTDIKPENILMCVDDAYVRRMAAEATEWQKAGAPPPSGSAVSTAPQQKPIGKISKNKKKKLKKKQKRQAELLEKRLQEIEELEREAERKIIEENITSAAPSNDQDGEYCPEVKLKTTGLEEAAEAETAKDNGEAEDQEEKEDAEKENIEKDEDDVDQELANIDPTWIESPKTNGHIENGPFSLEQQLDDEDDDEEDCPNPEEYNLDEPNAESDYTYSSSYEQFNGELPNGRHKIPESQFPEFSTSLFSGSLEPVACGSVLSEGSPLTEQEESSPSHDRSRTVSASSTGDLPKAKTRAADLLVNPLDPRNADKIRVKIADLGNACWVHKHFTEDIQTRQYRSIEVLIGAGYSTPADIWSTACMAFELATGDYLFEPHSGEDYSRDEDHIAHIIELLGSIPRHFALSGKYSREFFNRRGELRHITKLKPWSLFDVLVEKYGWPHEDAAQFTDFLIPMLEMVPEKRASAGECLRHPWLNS", "chain of UniProt P57059 (whole entry, looked up)": "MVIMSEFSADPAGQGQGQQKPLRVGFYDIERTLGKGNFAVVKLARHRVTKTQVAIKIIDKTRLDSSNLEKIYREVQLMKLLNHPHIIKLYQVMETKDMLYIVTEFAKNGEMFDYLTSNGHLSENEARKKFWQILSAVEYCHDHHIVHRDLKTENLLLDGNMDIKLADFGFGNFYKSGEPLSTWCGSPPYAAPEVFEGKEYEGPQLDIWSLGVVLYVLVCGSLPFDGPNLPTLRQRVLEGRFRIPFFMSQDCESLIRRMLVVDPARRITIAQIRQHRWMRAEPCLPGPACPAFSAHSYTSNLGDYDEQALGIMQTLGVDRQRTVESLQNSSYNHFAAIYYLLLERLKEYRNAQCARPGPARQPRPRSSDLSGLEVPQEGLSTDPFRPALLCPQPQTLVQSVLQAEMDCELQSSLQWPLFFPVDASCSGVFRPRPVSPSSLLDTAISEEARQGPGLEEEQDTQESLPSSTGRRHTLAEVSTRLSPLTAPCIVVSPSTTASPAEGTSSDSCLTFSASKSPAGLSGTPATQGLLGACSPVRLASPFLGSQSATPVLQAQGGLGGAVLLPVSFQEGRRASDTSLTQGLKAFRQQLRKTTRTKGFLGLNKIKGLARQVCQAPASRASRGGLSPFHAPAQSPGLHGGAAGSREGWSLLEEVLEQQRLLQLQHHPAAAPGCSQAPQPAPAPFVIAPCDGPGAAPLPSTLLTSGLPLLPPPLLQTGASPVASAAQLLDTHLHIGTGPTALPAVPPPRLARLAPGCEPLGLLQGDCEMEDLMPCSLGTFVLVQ", "chain of UniProt Q9BWU1 (whole entry, looked up)": "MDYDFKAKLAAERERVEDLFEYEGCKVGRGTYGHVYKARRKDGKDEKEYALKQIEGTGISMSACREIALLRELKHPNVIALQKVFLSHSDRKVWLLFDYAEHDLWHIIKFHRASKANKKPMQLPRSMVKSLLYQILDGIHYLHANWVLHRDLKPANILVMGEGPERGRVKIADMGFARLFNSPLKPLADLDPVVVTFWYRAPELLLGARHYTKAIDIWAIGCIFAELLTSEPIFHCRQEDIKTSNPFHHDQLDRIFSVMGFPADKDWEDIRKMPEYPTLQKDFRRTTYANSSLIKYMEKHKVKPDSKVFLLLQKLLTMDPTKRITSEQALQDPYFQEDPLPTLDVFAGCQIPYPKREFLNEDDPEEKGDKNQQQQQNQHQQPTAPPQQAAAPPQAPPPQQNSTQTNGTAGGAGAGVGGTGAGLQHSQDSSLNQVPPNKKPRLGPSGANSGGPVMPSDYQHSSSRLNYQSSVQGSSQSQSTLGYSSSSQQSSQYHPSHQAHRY"}
{"Structure (SMILES)": "C1=C/COCc2cc(ccc2OCCN2CCCC2)Nc2nccc(n2)-c2cccc(c2)COC/1", "target": "Phosphatidylinositol 4,5-bisphosphate 3-kinase catalytic subunit alpha isoform (PIK3CA, Homo sapiens, UniProt P42336, E545A)", "tested at": "0.1 µM", "remaining binding [%]": 45}
{"Structure (SMILES)": "CC1CCCN1c1nccc(-c2cnn3ncccc23)n1 (stereo not drawn)", "target": "Serine/threonine-protein kinase SIK1 (SIK1, Homo sapiens, UniProt P57059)", "tested at": "1 µM", "remaining binding [%]": 100}
{"Structure (SMILES)": "C[C@@H](c1ccc(-n2cnc3c(N)ncnc32)cc1)N1CCc2nn(C)c(Cc3ccccc3)c2C1=O", "target": "Discoidin domain-containing receptor 2 (DDR2, Homo sapiens, UniProt Q16832)", "technique": "competition with immobilised ligand", "tested at": "0.1 µM", "remaining binding [%]": 8.2}
{"Structure (SMILES)": "COc1cnc(Nc2cccc(S(N)(=O)=O)c2)nc1N1CCN(c2ccccc2)C(=O)C1", "target": "Calcium-dependent protein kinase 1 (CDPK1, Plasmodium falciparum, UniProt P62344)", "technique": "competition with immobilised ligand", "tested at": "1 µM", "remaining binding [%]": 100}
{"Structure (SMILES)": "C[C@H]1CCN(c2nccc(-c3cnn4ncccc34)n2)C1", "target": "Cyclin-dependent kinase 19 (CDK19, Homo sapiens, UniProt Q9BWU1)", "tested at": "1 µM", "remaining binding [%]": 70}
{"Structure (SMILES)": "Cc1cc([C@@H](C)Nc2ccccc2C(=O)O)c2nc(N3CCC(F)(F)CC3)c(C#N)c(=O)n2c1", "target": "cAMP-dependent protein kinase catalytic subunit alpha (PRKACA, Homo sapiens, UniProt P17612)", "technique": "competition with immobilised ligand", "tested at": "1 µM", "remaining binding [%]": 78}
{"Structure (SMILES)": "CNS(=O)(=O)c1ccc(Nc2ncc(C(F)(F)F)c(N3CCC[C@](C)(O)C3)n2)c(C)c1", "target": "Serine/threonine-protein kinase TAO3 (TAOK3, Homo sapiens, UniProt Q9H2K8)", "technique": "competition with immobilised ligand", "tested at": "1 µM", "remaining binding [%]": 4.3}
{"Structure (SMILES)": "CCCCC(=O)Nc1ccc(-c2ccc3ncn(CCC)c(=O)c3c2)cn1", "target": "SRSF protein kinase 2 (SRPK2, Homo sapiens, UniProt P78362)", "technique": "competition with immobilised ligand", "tested at": "0.5 µM", "remaining binding [%]": 100}
{"Structure (SMILES)": "C=CC(=O)N1CCC(COCC(=O)N2CCN(c3nc(-c4cnc(N)nc4C(F)F)nc(N4CCOC[C@@H]4C)n3)CC2)CC1", "target": "Vascular endothelial growth factor receptor 1 (FLT1, Homo sapiens, UniProt P17948)", "technique": "competition with immobilised ligand", "tested at": "1 µM", "remaining binding [%]": 96}
{"note": "Some of these lines once more:"}
{"Structure (SMILES)": "C[C@@H](c1ccc(-n2cnc3c(N)ncnc32)cc1)N1CCc2nn(C)c(Cc3ccccc3)c2C1=O", "target": "Discoidin domain-containing receptor 2 (DDR2, Homo sapiens, UniProt Q16832)", "technique": "competition with immobilised ligand", "tested at": "0.1 µM", "remaining binding [%]": 8.2}
